{"data": "Assay results from different studies", "note": "Parts stem from different laboratories: compare values within a part only. Substitutions count along the parent as printed."}
{"data": "Sample 1", "Molecule": "PhoQ, residues 284 288 289 292 302 303 NLSRDF", "method": "Sort-seq", "item": "YFP reporter", "medium": "E. coli", "notes": "PhoQ-PhoP variant library", "with": "10 µM Mg2+", "reference": "high Mg2+ state", "reading": "higher = stronger signaling"}
{"target": "PhoP, residues 12 14 15 18 19 GMGLL (Escherichia coli, UniProt P23836)", "fold induction": 7.32}
{"target": "PhoP, residues 12 14 15 18 19 QQAYL (Escherichia coli, UniProt P23836)", "fold induction": 11}
{"target": "PhoP, residues 12 14 15 18 19 LFHKL (Escherichia coli, UniProt P23836)", "fold induction": 0.769}
{"data": "Sample 2", "target": "RNA binding protein fox-1 homolog 2, RRM domain, GST-SBP tag (RBFOX2, Homo sapiens, UniProt O43251-10, residues 100-194)", "method": "RNA Bind-n-Seq", "molecule type": "RNA", "medium": "in vitro", "tested at": "365 nM", "notes": "natural RNA segment, single round, ends assumed", "reference": "no-protein control", "reading": "higher = stronger binding", "shared flanks, not repeated": "GGGAGUUCUACAGUCCGACGAUC … UGGAAUUCUCGGGUGCCAA", "Residues (chain)": "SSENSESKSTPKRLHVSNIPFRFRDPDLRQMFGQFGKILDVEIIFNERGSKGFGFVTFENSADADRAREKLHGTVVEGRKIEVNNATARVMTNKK"}
{"Oligonucleotide": "UACUUAAUUCCUGUGGGCAGGUUAUAUUUUAAGUUCAAAUGCAUUGCUUUAACCUUUGGUUACUUUUAUUCUGUUAAACAGAAUUGAAGAAAGAGUAUUAUACCAGAGUG", "RBNS enrichment (R)": 0.453}
{"Oligonucleotide": "UGUGUGUGUGUUUUUUUUUUUCUUAAGUGACUUUGAAAUUUUAAAUAACAAUUUAAAACAUUAAAAUUUCUUAUUAUCUUGGUCAUUUAAACCUGCUAAUAUGACUCCCU", "RBNS enrichment (R)": 0.697}
{"Oligonucleotide": "UUUCUCUUUGUCAUUAAAGUCAAAUGUCUAUCUGGCUCACCACAAAGUGUUCUUUGAUUUUGGCUUUGAGGCUGCCAUUUCUGGAAUAAGGGGGGAUGGGAAACAGCUGA", "RBNS enrichment (R)": 0.32}
{"Oligonucleotide": "UUGUGGGCAGAGCUAAUCCAAGUUACUGUUCUCUGUUCAAAUGAAGCAGCUUCAGGAGAAAAAGAGCAAUUACUUUUGAAUUCUCCAAUAAAUCUGGACAAUGCCGUUAG", "RBNS enrichment (R)": 0.265}
{"Oligonucleotide": "UCCAGCACACAGUGUGUAUGUUGGAGGGAGUGUGGAUUAGCAGAGAAUGAGAACUACCUCAGCUAUUCCUGCCAUAACCACACUGAGAGAGGGGGGCACGGUGGGGAGCC", "RBNS enrichment (R)": 1.23}
{"Oligonucleotide": "ACAGUGUAGGAUUUAAGAAUAGAUGGUUUUUAAUCCUGGAAAUUGUGAUUGUGACCCAUGAGUGGAGGAACUUUCAGUUCUAAAGCUGAUAAAGUGUGUAGCCAGAAGAG", "RBNS enrichment (R)": 0.5}
{"Oligonucleotide": "GUUUACUCUCCUUCUAGCUUUCUGCUUACCGCACACUGGAUAACACACACAUACACACCCACAAAAAUGCUCAUGAACCCAAUCCGGAGAAGGUUCCAGCAGGUCCCCCA", "RBNS enrichment (R)": 0.658}
{"Oligonucleotide": "UGCUGUAAGAUUGUAUUCUGUAUAUAUGUUUUCAUGUAAAUAAAUGAAAAUCUAUAUCAGAGUUAUAUUUUAAUUUUUAUUCUAAAUGAAAAAAACCCUUUUUACUUCAA", "RBNS enrichment (R)": 1.49}
{"data": "Sample 3", "target": "ABI1, truncated, D143A, DHFR fusion (Arabidopsis thaliana)", "method": "DHFR PCA, deep sequencing", "medium": "yeast", "notes": "methotrexate growth selection, single substitutions", "with": "(+)-ABA 4.8 µM", "reference": "wild-type fitted maximum", "reading": "higher = stronger binding", "parent": "PYL1, truncated, DHFR fusion (Arabidopsis thaliana); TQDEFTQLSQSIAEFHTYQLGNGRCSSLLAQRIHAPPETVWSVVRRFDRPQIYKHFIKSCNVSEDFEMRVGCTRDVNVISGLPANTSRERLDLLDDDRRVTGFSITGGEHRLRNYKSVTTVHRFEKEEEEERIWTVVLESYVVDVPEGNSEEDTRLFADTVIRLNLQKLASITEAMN"}
{"Variant": "P36F", "relative binding score [%]": 25.4}
{"Variant": "T120R", "relative binding score [%]": 5.71}
{"Variant": "L20F", "relative binding score [%]": 56.1}
{"Variant": "D159G", "relative binding score [%]": 10.6}
{"Variant": "A84P", "relative binding score [%]": 13.4}
{"Variant": "S63P", "relative binding score [%]": 78.4}
{"Variant": "E130Q", "relative binding score [%]": 76.2}
{"Variant": "Q2W", "relative binding score [%]": 66.4}
{"Variant": "E139Y", "relative binding score [%]": 73.9}
{"data": "Sample 4", "target": "CCNE1, cyclin fold, Cln2 fusion (human)", "method": "yeast growth competition, sequencing", "medium": "yeast", "notes": "strong parent motif", "reference": "not given", "reading": "higher = stronger binding", "parent": "GMNC docking peptide (human); KNAKRNLSSEFAN"}
{"Variant": "KNYKRNLSSEFAN [A3Y]", "normalised enrichment score": 0.868}
{"Variant": "KNAKRNLSSTFAN [E10T]", "normalised enrichment score": 0.451}
{"Variant": "KNAKRNLVSEFAN [S8V]", "normalised enrichment score": 1.53}
{"Variant": "KPAKRNLSSEFAN [N2P]", "normalised enrichment score": 1.18}
{"Variant": "KNAKRNLRSEFAN [S8R]", "normalised enrichment score": 0.437}
{"Variant": "KNAPRNLSSEFAN [K4P]", "normalised enrichment score": 0.293}
{"Variant": "KNAKRNLSSELAN [F11L]", "normalised enrichment score": 0.961}
{"Variant": "KNAKENLSSEFAN [R5E]", "normalised enrichment score": 0.194}
{"Variant": "KNAKRNLSSEFYN [A12Y]", "normalised enrichment score": 0.812}
{"Variant": "KNAKRNLSSEFMN [A12M]", "normalised enrichment score": 1.26}
